# Assay results pooled from the literature.
# Every numbered part comes from another study and shows a few of its results, in no order.

# Block 1 — technique: protein binding microarray; form: double-stranded DNA, one strand shown; sample: in vitro; tested at: not given; baseline: not given; reading: higher = stronger binding
# Target: Histone acetyltransferase KAT6A, winged helix 2, GST fusion (KAT6A, Homo sapiens, UniProt Q92794, residues 85-181)
# Notes: 8-mer, flanks averaged, mean of 2 arrays, mostly near background
# Residues (chain): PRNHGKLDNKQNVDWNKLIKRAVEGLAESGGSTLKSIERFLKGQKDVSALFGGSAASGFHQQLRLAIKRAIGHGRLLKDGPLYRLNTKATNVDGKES
Sequence,E-score
CCGGGCTA,0.0194
GTCTGTAA,-0.0255
CTGGGAAA,0.09
AGAATTTG,0.0341
CTCGGGTC,0.129
GCTGTGCC,0.227
CCGATCCC,0.0449
AGAACGAT,0.0838
AGCGCTTC,0.0529
AGCGCTAT,0.0324
CTCTGAGC,-0.0108
AATTCTGT,-0.0653
ATTTCGTA,-0.00622
GATTCTCC,0.108
GTTGTGAA,-0.0993
AGTCAACA,-0.139
ACGGGTCT,-0.202
CCATTGCC,0.0194

# Block 2 — technique: protein-binding microarray; form: double-stranded DNA, one strand shown; sample: in vitro; tested at: 2540 nM top; notes: 60-bp whole probe; together with: salmon DNA 0.4 mg/ml; baseline: random background probes; reading: higher = stronger binding; all sequences stand within: GCCTAGCAC … GTCTTGATTCGCTTGACGCTGCTG
# Target: Interferon regulatory factor 3, full length, phosphomimetic (IRF3, Homo sapiens, UniProt Q14653, residues 1-427, S386D/S396D/S398D/S402D/T404D/S405D)
# Construct (chain): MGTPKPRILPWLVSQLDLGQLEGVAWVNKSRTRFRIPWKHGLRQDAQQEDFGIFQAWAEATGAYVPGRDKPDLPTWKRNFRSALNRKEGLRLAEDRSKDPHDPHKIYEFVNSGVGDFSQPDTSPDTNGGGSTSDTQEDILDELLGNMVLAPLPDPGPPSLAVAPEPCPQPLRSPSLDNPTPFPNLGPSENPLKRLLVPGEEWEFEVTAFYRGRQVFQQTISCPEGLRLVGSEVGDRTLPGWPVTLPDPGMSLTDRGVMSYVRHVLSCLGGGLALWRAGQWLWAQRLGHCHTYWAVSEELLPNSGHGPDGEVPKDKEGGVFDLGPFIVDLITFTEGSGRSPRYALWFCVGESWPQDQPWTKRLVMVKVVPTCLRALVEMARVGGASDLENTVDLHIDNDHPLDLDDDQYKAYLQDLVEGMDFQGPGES
Sequence,fitted relative affinity [z-score]
TTAGGTCTCCTTATCATTTAGTGCTAG,2.52
TCATTATTAAAACTTCATACTGTGCTA,0.726
TTCGAACTGGGGTTTCGATTAGTGCTA,1.6
GGCGCTTTTTTTCCGAGTGAGTGCTAG,0.966
GACGGACTTGACACTGGGGACGTGCTA,-0.713
TTAGGTCTCCTACTGCATTAGTGCTAG,0.841
TTAGGACTGCATATCCTTTAGTGCTAG,0.042
GACGGTATCGACTTTCGGGTCGTGCTA,1.6
TTAAGTTTCGGGTATCGGTTAGTGCTA,4.71
GACGGTAACGGTATCGGGACGTGCTAG,0.742
TTTGGTTTCGGTTCCGGTTAGTGCTAG,11.3
TACGGACTGCTTATCCTGACGTGCTAG,-0.232
CTTAGTTTGTATATATTTTAGTGCTAG,0.585
TTAGATTTCGGGTATCGAGTAGTGCTA,1.14
GACGGTCTCCTGATCCTGACGTGCTAG,0.814
TCAGGAAACTTAAACTAGACTGTGCTA,0.386
TTAGGTATCGGTCTCGGTAAGTGCTAG,4.76
TTAGGTATCAACTATCGGTTAGTGCTA,0.667
GACCGTTTCGGTTCCGGGACGTGCTAG,9.63
GACGAACTGAGACTGAAGACGTGCTAG,-0.107
TTAGGTATCGGGACTGGGGTAGTGCTA,1.05
GACGGACTGGGATTCGGGACGTGCTAG,-0.572
TTCGATTTCAGTTCCGATTAGTGCTAG,3.91
GACGATTTCGGGTATCGAAACGTGCTA,2.26
TTAGGTTTCTGTCTCGGTTAGTGCTAG,4.74

# Block 3 — technique: EMSA with sequencing; form: double-stranded DNA, one strand shown; sample: in vitro; tested at: 10 and 20 nM; baseline: negative control set to 0; reading: higher = stronger binding
# Target: Hepatocyte nuclear factor 3-alpha (Foxa1, Mus musculus, UniProt P35582, residues 1-468, full length assumed)
# Notes: whole designed probe, mean of two concentrations, ends assumed
# Construct (chain): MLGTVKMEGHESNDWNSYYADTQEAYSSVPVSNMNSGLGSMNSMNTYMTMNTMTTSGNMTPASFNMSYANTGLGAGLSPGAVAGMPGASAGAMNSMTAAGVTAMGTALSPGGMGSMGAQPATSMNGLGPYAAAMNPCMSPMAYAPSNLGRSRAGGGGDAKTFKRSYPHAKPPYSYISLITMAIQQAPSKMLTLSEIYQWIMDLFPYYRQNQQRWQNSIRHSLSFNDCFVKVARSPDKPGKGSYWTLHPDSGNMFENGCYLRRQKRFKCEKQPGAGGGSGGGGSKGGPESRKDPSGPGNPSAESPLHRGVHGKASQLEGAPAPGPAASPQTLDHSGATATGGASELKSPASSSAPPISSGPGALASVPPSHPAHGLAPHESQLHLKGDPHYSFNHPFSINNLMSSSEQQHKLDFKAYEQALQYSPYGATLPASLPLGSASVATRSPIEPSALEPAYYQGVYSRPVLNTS
Sequence,normalised bound fraction [ratio]
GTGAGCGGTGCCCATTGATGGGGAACATCTTCCCCCTCTTCCTTGCCCCACCAGCTCACCTACGGGGGTTATTTGCAGATAGGAAAATAAATAAAGCCGGCATTCGTTAACGCAGTTCACGCGCATACTGCTGTTTGCTCTGGATGAATCATGGTCCTTTGGCGACGCCAGGCTCCGGGAGAGCAAAGCACCGTGTCAGGGCCATGATCCGGGCTCGCCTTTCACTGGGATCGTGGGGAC,0.344
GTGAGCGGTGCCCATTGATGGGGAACGAGCTGCTTGCAATTGAGTTGTATGTATGCTTCCACTTAATACGTCCTGCCGAGCCTGTAAGCCAACACTTCCGGCCAGGAATCTGCCCTCTGAGATTACCTACTCTCTTTTTATGTCTTATTCCCAGAATGACTGGGGACCAAAGGAATCCTTTGCAGGAGTTTTCTCCAGACAGACAGTTCCACATGCTAGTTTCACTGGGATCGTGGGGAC,-0.0449
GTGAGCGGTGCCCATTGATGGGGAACACTGCTCACCACAGTTTTAAAGCTTTGCCTCTACCTGAAAACCAAACTGGATATGCAGTTAAGTGGAGAATTTAATCTTCCTTTAAAGACAATGCAATCTATTGGTGCCCCTTTAAAACTCGCTTTCTTGTTGAAAGTGAATATTTCTTTTGGATCATTCAAAAACTTCAAGTTTCTTCTGTGATTGTGTACATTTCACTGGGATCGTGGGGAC,0.0213
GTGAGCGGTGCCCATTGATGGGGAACAAAGGGTATTGTTTCAAAGCAGGGCTAGCAGAAGGCAGTAGACAGAGGGTGTTCGCTGTCAGAGTCTGGGGCGCTGCTGCAGGCTCACCTGGCTGTGTACACAGCTCCCATTCACCTAGTGAAATCGTGTAAATAATGAAGTGCACACATTGCATAACAAACAGGAACTCTTCTGATCCAAAGAGGTGGCATTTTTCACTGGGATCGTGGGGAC,0.308
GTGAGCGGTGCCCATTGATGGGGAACATCTTCCCCCTCTTCCTTGCCCCACCAGCTCACCTTCCCGGGTTATTTGCACAAAGGAAAATAAATAAAGCCGGCATTCGTTAACCCTCTTCACGCGCATACTGCTGTTTGCTCTGGATCTAACATGGTCCTTTGGCGAGGCGTGGCTCCGGGAGAGCAAAGCACCGTGTCAGGGCCATGATCCGGGCTCGCCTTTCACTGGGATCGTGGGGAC,0.372
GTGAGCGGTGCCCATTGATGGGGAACATCTTCCCCCTCTTCCTTGCCCCACCAGCTCACCTTCCCGGGTTATTTGCAGATAGGAAAATAAATAAAGCCGGCATTCGTTAACGCAGTTCTGGCGCAAACTGCTGTTTGCTCTGCATGAATCATGGTCCTTACGCGAGGCGTGGCTCCGGGAGAGCAAAGCACCGTGTCAGGCGCATGATCCGGGCTCGCCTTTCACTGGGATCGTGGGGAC,0.358

# Block 4 — technique: RNA Bind-n-Seq; form: RNA; sample: in vitro; tested at: 365 nM; baseline: no-protein control; reading: higher = stronger binding
# Target: RNA binding protein fox-1 homolog 2, RRM domain, GST-SBP tag (RBFOX2, Homo sapiens, UniProt O43251-10, residues 100-194)
# Notes: natural RNA segment, single round, ends assumed
# Construct (chain): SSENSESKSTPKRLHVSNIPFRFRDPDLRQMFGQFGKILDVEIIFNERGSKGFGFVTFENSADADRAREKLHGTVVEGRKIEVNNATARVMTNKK
Sequence,RBNS enrichment (R)
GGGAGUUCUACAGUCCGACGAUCGGGUUGUGUUUAUAUUCGGGGGGAGGGGUAUACUUAAUAAAGUUACUGCUGUCUGUCAGAUACCUCUGCCUGGUAUUGGAGAUUUCUUUUUCUUUAUCUUUUUCUGCCCCUGGAAUUCUCGGGUGCCAA,0.539
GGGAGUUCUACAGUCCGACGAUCAGUUGCUAUGUGUUUCUCAUUGUAAAAGGCUGCCGCUGGGUGGCAGAAGCCAAGAGACCUUAUUAACUAGGCUAUAUUUUUCUUAACUUGAUCUGAAAUCCACAAUUAGAUGGAAUUCUCGGGUGCCAA,0.377
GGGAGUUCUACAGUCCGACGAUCAAAUCCUCCUGCCCAUACCGUGCACCCUUAGAAGCCUGCGUGUGCAUAGAGCGCCCCCUACUUCCCAGUUAACUCCCAGUUCUUCUCCCUGAGCUUGGUAUUUGUCAUGUUGGAAUUCUCGGGUGCCAA,1.29
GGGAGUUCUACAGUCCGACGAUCCUCCUUGGGAUGAAGAAAUUUCUCUUUCCCUGUCAUGAGUGUCCAGCCAGGGAGCAGGGAGGCAGUGUCAGGGAGGGACUCUCAUCCUGGAGGAAAUGGGAUUCCAAGUCUGGAAUUCUCGGGUGCCAA,0.328
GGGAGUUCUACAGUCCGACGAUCGGAUAGACUUUUAGUUGAUAGAGAGCCAGUUGAAAUAUCAUCAAUAGAAUUUUAGUUUAGGGAAAACUGGUUUGAUUUCUAGCUUUAUUACUAUUAGGUAUGUAAGCUUGUGGAAUUCUCGGGUGCCAA,0.733
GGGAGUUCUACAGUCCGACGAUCCUAAAUCAUACCCCACUCCCCACUCCCAUUUCGAUUCUCCAGCGGCUCCUUUUAGUUUGUUGUCUUGCCCUACUGUGUAGCUCACUGACUGAGAAUAAAGAAUACAGCAAUGGAAUUCUCGGGUGCCAA,3.33
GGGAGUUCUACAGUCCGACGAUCGCACGCCGUGCGCGACGGCUGACCUGGCAGCGUAGAGUGGGAUGAUCUAAAACUAAAGCUGCCUGUGCUUGUUUGUAAAGCUUAUACUCCCAGAAUUAGCCUGAGCUGCUUGGAAUUCUCGGGUGCCAA,4.14
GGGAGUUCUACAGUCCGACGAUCCAUUGUUUGCUGCUAUUGGAGGAUCAGUUUUUUGUUUUACAAUGUCAUAUACUGCCAUGUACUAGUUUUAGUUUUCUCUUAGAACAUUGUAUUACAGAUGCCUUUUUUGUUGGAAUUCUCGGGUGCCAA,1.25
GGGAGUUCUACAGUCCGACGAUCUGCAUGGGGUGCUAGGGUUUAAACCAAGUGGUCACGAAGGAUUCUUAUCUCAGGGCUCUGCCUGGCCCACCUUCUCUUGGGCCUGGACUCUCCUUAUCCACAUCCCUGCAUGGAAUUCUCGGGUGCCAA,6.15
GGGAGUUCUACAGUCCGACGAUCGGUUAUCUCUUGGUAUCUCUCCUGACAUAUUUGUUUUGCUUUAAAUUGGAUUAAAUGGUUUACAGGUUAUCUGAAUCUACAGAUUUAGUAUGUCUAUUAUCUGGACAUGAUGGAAUUCUCGGGUGCCAA,0.278
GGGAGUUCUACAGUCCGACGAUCUUGCUCUGUAGCCAUGUGAAGCUUGCUAGCCGCGGCUGUACAUCCUGUGACUUCCACCUUGGGUUUAGUAAUGGGAGCUUGAGAUUGGAGAGCUGAGUCCUCUGUGGGUUUGGAAUUCUCGGGUGCCAA,0.611
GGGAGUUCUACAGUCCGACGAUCACCUGUGCCAACUGUGGAGUGGGGAGGCAGGGCCUGAACCCUCAAUCCCUGCAGCCUAGCCUCCCCACCCUCCAGAACCUGGAAUAGCUGAGCAGCUCAGGCUGUGGCCCUGGAAUUCUCGGGUGCCAA,0.453

# Some of these lines once more (block 1):
Sequence,E-score
CCGATCCC,0.0449
CTGGGAAA,0.09
GATTCTCC,0.108
ACGGGTCT,-0.202
CTCGGGTC,0.129
GCTGTGCC,0.227
AATTCTGT,-0.0653
GTTGTGAA,-0.0993
AGCGCTTC,0.0529
